Published values collected from several papers.
Each line is one published result; not all experiments were run side by side.
Observed: metabolic stability

For `Cc1ncsc1-c1ccc([C@H](CC(=O)N2CCN(c3ccc(C#Cc4ccc(C(=O)N5CCC(n6cc(-c7ccc8c(c7)CCN8C(=O)Cc7cccc(OC(F)(F)F)c7)c7c(N)ncnc76)CC5)cc4)cn3)CC2)NC(=O)[C@@H]2C[C@@H](O)CN2C(=O)[C@@H](NC(=O)C2(F)CC2)C(C)(C)C)cc1`, the half-life was > 90 min (mouse, liver S9; 1 µM).
For `Cl.N=C(N/N=C/c1ccnc2ccccc12)N/N=C/c1ccnc2ccccc12`, the half-life was 16.6 min (mouse, liver microsomes; 1 µM, pH 7.4).
`O=c1c2c([nH]c3cc(Nc4ccc(OC(F)(F)F)cc4)ccc13)CCCC2` has a half-life of 17.2 min (mouse, liver microsomes; 1 µM, pH 7.4).
The half-life of `O=C(COc1ccc(N2C(=O)[C@@H]3[C@@H]4C=C[C@@H]([C@H]5C[C@@H]45)[C@@H]3C2=O)cc1)c1cc(Cl)cc(Cl)c1` is reported as > 206 min (female CD-1 mouse, liver S9).
`Cl.N=C(N/N=C/c1ccnc2cc(Cl)ccc12)N/N=C/c1ccnc2cc(Cl)ccc12` gave a half-life of 46.4 min (mouse, liver microsomes; 1 µM, pH 7.4).
For `CC(C)n1ncc2c(C(=O)NCC(C)(C)N(C)C)cc(C3CC3)nc21`, the half-life was 45.6 min (mouse, liver microsomes).
`Cl.N=C(N/N=C/c1cnc2ccccc2c1)N/N=C/c1cnc2ccccc2c1` has a half-life of 4.75 min (mouse, liver microsomes; 1 µM, pH 7.4).
`CCCN(CCC)CCCOc1ccc2c(=O)c3c([nH]c2c1)CCCC3` has a half-life of 40.6 min (mouse, liver microsomes; 1 µM, pH 7.4).
With `Cc1ncsc1-c1ccc([C@H](C)NC(=O)[C@@H]2C[C@@H](O)CN2C(=O)[C@@H](NC(=O)CCCCCCCCC(=O)N2CCC(n3cc(-c4ccc5c(c4)CCN5C(=O)Cc4cccc(OC(F)(F)F)c4)c4c(N)ncnc43)CC2)C(C)(C)C)cc1` the half-life was 67.3 min (mouse, liver S9; 1 µM).
For `CC(C)n1ncc2c(C(=O)NCC3(F)CNC3)cc(C3CC3)nc21`, the half-life was 70.1 min (mouse, liver microsomes).
With `Cc1ncsc1-c1ccc([C@H](CC(=O)N2CC3(C2)CN(c2ccc(C#Cc4ccc(C(=O)N5CCC(n6cc(-c7ccc8c(c7)CCN8C(=O)Cc7cccc(OC(F)(F)F)c7)c7c(N)ncnc76)CC5)cc4)cn2)C3)NC(=O)[C@@H]2C[C@@H](O)CN2C(=O)[C@@H](NC(=O)C2(F)CC2)C(C)(C)C)cc1` the half-life was > 90 min (mouse, liver S9; 1 µM).
`O=c1c2ccc(Oc3ccc(OC(F)(F)F)cc3)cc2[nH]c2cc(F)c(Cl)cc12` gave a half-life of > 60 min (mouse, liver microsomes; 1 µM, pH 7.4).
For `Cc1ncsc1-c1ccc(C2(NC(=O)[C@@H]3C[C@@H](O)CN3C(=O)[C@@H](NC(=O)CCCCCCCCCCC(=O)N3CCC(n4cc(-c5ccc6c(c5)CCN6C(=O)Cc5cccc(OC(F)(F)F)c5)c5c(N)ncnc54)CC3)C(C)(C)C)CC2)cc1`, the half-life was 48 min (mouse, liver S9; 1 µM).
`CC(C)n1ncc2c(C(=O)NC(C)(C)CN)cc(C3CC3)nc21` gave a half-life of 72.6 min (mouse, liver microsomes).

Some of these lines once more:
`Cl.N=C(N/N=C/c1ccnc2cc(Cl)ccc12)N/N=C/c1ccnc2cc(Cl)ccc12` gave a half-life of 46.4 min (mouse, liver microsomes; 1 µM, pH 7.4).
For `CC(C)n1ncc2c(C(=O)NCC(C)(C)N(C)C)cc(C3CC3)nc21`, the half-life was 45.6 min (mouse, liver microsomes).
